Assay results gathered from unrelated publications.
Lines come from different studies, so protocols differ. Numbers after ± are the reported error.
B1: human KIF2C; sequence looked up; chain AMDSSLQARLFPGLAIKIQRSNGLIHSANVRTVNLEKSCVSVEWAEGGATKGKEIDFDDVAAINPELLQLLPLHPKDNLPLQENVTIQKQKRRSVNSKIPAPKESLRSRSTRMSTVSELRITAQENDMEVELPAAANSRKQFSVPPAPTRPSCPAVAEIPLRMVSEEMEEQVHSIRGSSSANPVNSVRRKSCLVKEVEKMKNKREEKKAQNSEMRMKRAQEYDSSFPNWEFARMIKEFRATLECHPLTMTDPIEEHRICVCVRKRPLNKQELAKKEIDVISIPSKCLLLVHEPKLKVDLTKYLENQAFCFDFAFDETASNEVVYRFTARPLVQTIFEGGKATCFAYGQTGSGKTHTMGGDLSGKAQNASKGIYAMASRDVFLLKNQPCYRKLGLEVYVTFFEIYNGKLFDLLNKKAKLRVLEDGKQQVQVVGLQEHLVNSADDVIKMIDMGSACRTSGQTFANSNSSRSHACFQIILRAKGRMHGKFSLVDLAGNERGADTSSADRQTRMEGAEINKSLLALKECIRALGQNKAHTPFRESKLTQVLRDSFIGENSRTCMIATISPGISSCEYTLNTLRYADRVKELSPHSGPSGEQLIQMETEEMEACSNGALIPGNLSKEEEELSSQMSSFNEAMTQIRELEEKAMEELKEIIQQGPDWLELSEMTEQPDYDLETFVNKAESALAQQAKHFSALRDVIKALRLAMQLEEQASRQISSKKRPQ
B2: human ADP/ATP translocase 3; sequence looked up; chain MTEQAISFAKDFLAGGIAAAISKTAVAPIERVKLLLQVQHASKQIAADKQYKGIVDCIVRIPKEQGVLSFWRGNLANVIRYFPTQALNFAFKDKYKQIFLGGVDKHTQFWRYFAGNLASGGAAGATSLCFVYPLDFARTRLAADVGKSGTEREFRGLGDCLVKITKSDGIRGLYQGFSVSVQGIIIYRAAYFGVYDTAKGMLPDPKNTHIVVSWMIAQTVTAVAGVVSYPFDTVRRRMMMQSGRKGADIMYTGTVDCWRKIFRDEGGKAFFKGAWSNVLRGMGGAFVLVLYDELKKVI
UniProt P05177, sequence (whole entry, looked up): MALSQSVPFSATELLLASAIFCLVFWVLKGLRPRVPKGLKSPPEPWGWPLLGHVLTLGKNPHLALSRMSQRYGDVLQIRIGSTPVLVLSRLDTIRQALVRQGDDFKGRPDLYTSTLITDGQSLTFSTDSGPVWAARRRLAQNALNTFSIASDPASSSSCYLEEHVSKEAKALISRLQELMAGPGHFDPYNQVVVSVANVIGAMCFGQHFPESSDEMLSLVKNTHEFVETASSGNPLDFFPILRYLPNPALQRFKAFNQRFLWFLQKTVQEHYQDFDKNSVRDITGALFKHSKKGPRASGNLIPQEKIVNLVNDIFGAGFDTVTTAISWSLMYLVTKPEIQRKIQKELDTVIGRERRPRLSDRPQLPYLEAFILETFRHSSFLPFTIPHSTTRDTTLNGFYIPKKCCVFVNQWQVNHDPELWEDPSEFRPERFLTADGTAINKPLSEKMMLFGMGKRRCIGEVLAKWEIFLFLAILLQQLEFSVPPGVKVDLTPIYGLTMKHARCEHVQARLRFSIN
UniProt Q12809, sequence (whole entry, looked up): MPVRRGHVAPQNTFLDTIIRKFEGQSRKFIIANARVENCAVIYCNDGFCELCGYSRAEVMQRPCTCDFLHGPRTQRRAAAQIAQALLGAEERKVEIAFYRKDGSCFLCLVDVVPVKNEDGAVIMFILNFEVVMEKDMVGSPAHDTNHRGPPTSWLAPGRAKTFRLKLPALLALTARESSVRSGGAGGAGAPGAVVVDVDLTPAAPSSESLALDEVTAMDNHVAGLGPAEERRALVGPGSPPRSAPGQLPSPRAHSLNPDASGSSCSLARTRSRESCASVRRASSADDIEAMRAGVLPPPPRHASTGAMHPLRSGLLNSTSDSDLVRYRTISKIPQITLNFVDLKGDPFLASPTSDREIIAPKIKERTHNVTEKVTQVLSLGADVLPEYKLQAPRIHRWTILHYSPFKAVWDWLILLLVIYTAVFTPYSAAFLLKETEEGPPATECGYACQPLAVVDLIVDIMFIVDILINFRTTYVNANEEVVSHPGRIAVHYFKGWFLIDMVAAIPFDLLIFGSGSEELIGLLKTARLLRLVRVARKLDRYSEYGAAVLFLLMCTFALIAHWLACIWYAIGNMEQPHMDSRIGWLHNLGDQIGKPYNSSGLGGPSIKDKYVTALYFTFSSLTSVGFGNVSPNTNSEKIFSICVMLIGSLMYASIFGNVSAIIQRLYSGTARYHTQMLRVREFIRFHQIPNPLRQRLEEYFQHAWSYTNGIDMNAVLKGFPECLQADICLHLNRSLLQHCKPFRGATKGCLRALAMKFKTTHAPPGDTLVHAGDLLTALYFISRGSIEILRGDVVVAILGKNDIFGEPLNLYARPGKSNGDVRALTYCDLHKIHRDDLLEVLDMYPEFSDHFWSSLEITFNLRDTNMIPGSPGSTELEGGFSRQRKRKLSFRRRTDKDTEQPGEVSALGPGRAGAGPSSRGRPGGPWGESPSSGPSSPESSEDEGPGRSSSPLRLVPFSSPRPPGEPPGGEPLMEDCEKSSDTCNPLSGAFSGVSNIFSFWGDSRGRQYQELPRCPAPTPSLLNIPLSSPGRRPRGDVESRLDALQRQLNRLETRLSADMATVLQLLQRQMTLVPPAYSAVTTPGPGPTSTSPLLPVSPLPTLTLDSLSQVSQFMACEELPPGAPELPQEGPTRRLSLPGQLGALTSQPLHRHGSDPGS
UniProt P00760, sequence (whole entry, looked up): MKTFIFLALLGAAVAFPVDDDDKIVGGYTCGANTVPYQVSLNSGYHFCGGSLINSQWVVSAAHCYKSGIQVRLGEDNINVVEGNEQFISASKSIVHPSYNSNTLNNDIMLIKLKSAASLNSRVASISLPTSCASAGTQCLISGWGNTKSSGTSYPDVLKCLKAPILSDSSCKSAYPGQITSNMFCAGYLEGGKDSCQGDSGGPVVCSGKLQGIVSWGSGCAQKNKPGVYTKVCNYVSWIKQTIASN

Substance | target or system | test | test system | conditions | how to read | measurement | value
Teicoplanin | – | – | QC solution | 13 months, -40 °C, high QC level | – | recovery | 95.3%
CTOP | – | RP-HPLC | HALO Phenyl-hexyl column | 25 µM, formic acid/acetonitrile, 10 min gradient | – | retention time | 3.64 min
FNA / CGLSGLGVA-NH2 ([18F]FNA-labelled, C-amide) | – | gamma counting | peptide, glioblastoma mice, femur (bone and marrow) | 60 min, added: CooP blocking, 500-fold excess | – | tissue uptake | 0.41 %ID/g
B1 (human KIF2C) | PP6C (human) | co-immunoprecipitation, IP-MS | CYB5R4 knockout cells | concentration not given | relative to: CYB5R4 knockout over parental | log2 fold change | -1.03
colloidal bismuth subcitrate | HeLa | cell viability, CellTiter-Glo | – | 24 h, 37 °C, 10% FBS | – | highest non-toxic concentration | ≤ 50 µM
human ME2 T76N | – | enzyme activity, activator, NADH absorbance | recombinant enzyme | range over 0 to 5 mM, pH 7.4 | relative to: wild type | activation fold | 1.2
colistin | Pseudomonas aeruginosa | – | clinical isolate RKI 347/12 | – | – | MIC | ≤ 1 µg/mL
Polymyxin B | – | untargeted LC-MS metabolomics, item: L-cysteine | Sprague-Dawley rat, right cerebral cortex | intracerebroventricular, 0.75 mg/kg, 1 h | relative to: NaCl control | log2 fold change | -5.7
alpinetin | Cytochrome P450 1A2 (CYP1A2, Homo sapiens, UniProt P05177) | LC-MS/MS | human liver microsomes | 10 µM, added: phenacetin | – | remaining activity | 17.5 ± 2.01%
caspofungin | – | – | adult ICU patients, mITT, serum | dose not given, day 4 | – | aspartate aminotransferase | 29.6 U/L
B2 (human ADP/ATP translocase 3) | PP6C (human) | co-immunoprecipitation, IP-MS | CYB5R4 knockout cells | concentration not given | relative to: CYB5R4 knockout over parental | log2 fold change | -0.19
Pexiganan | Serine protease 1 (PRSS1, Bos taurus, UniProt P00760) | LC-SLIPS | – | 0.1 mg/mL, 37 °C, bovine trypsin, added: 25 12.5 ng/mL trypsin | – | incubation time to control sliding time | 2 to 4 h
methyl-β-cyclodextrin | KCNH2 (Homo sapiens, UniProt Q12809) | steady-state activation, whole-cell patch clamp | – | – | – | maximum tail current density | 55 ± 14.3 pA/pF

For quick reference, copied from above:
Substance | target or system | test | test system | conditions | how to read | measurement | value
FNA / CGLSGLGVA-NH2 ([18F]FNA-labelled, C-amide) | – | gamma counting | peptide, glioblastoma mice, femur (bone and marrow) | 60 min, added: CooP blocking, 500-fold excess | – | tissue uptake | 0.41 %ID/g
